Results gathered from unrelated publications.
Each line is one published result; not all experiments were run side by side.

Structure (SMILES) | cell line | test | setting | how to read | quantity | result
CC(C)(C)c1cc(-c2ccc3cc4ccccc4nc3n2)nc(-c2ccc3cc4ccccc4nc3n2)c1.Cc1ccncc1.[Cl-].[Cl-].[Ru+2].c1ccc2cc3nc4c5cccnc5c5ncccc5c4nc3cc2c1 | B16-F10 | resazurin | with: light 633 nm, 100 J/cm2 | relative to: dark EC50 over light EC50 | phototoxicity index | 4
CNS(=O)(=O)Nc1nccc(Cc2c(C)c3ccc(Oc4ncccc4F)cc3oc2=O)c1F | NCI-N87 | cell viability | 7 days | – | IC50 | 368 nM
Cn1ncc2cc(-c3cncc(Cl)c3N3CCC4(CCNC4=O)CC3)ccc21 | LS174T | gene expression, microarray, refers to: PLD1 mRNA | concentration not given, 4 h | relative to: untreated cells | log2 fold change | -1.42
CC(C)(C)c1cc(-c2ccc3cccnc3n2)nc(-c2ccc3cccnc3n2)c1.[Cl-].[Cl-].[Ru+2].c1ccc2cc3nc4c5cccnc5c5ncccc5c4nc3cc2c1 | B16-F10 | resazurin | with: light 523 nm, 100 J/cm2 | relative to: dark EC50 over light EC50 | phototoxicity index | 10
CC(C)c1ccc(N(C)c2ccc3c(c2)OCC[C@H]3CNc2cnccc2C(=O)O)cc1 | VCaP | cell growth or viability, ATP luminescence | 7 days | – | IC50 | ≥ 10000 nM
CN1CCCNC(=O)c2cccc(c2)C(=O)NCCCN(C)CCCNc2cccc3c2C(=O)c2cccc(c2C3=O)NCCC1 | SAS | RNA-Seq, refers to: PIAS3 mRNA | 1 µM, 6 h | relative to: untreated cells | log2 fold change | -1.03
CCN(CC)CC(=O)Nc1cccc(-n2cc(-c3ccc4ccc(-c5cn(-c6cccc(NC(=O)CN(CC)CC)c6)nn5)cc4c3)nn2)c1 | RCC4 | PCR angiogenesis array, refers to: ANGPT2 | 5 x IC50, 2 h, normoxia | relative to: untreated | fold regulation | -1.49
Cc1ncsc1-c1ccc(C(C)NC(=O)C2CC(O)CN2C(=O)C(NC(=O)CCCCCCCCCCN2CCCC(Nc3ncc(Cl)c(Nc4ccccc4S(=O)(=O)C(C)C)n3)C2)C(C)(C)C)cc1 (stereo not drawn) | 22Rv1 | RNA-seq, refers to: SV2C mRNA | concentration not given | relative to: DMSO | log2 fold change | -1.64
CO[C@@H]1[C@@H](OC(N)=O)[C@@H](O)[C@H](Oc2ccc3c(O)c(NC(=O)c4ccc(O)c(CC=C(C)C)c4)c(=O)oc3c2C)OC1(C)C | HCT-116 parental | – | 250 µM | relative to: untreated | colony survival | 6.46%

Excerpt of the above:
Structure (SMILES) | cell line | test | setting | how to read | quantity | result
Cn1ncc2cc(-c3cncc(Cl)c3N3CCC4(CCNC4=O)CC3)ccc21 | LS174T | gene expression, microarray, refers to: PLD1 mRNA | concentration not given, 4 h | relative to: untreated cells | log2 fold change | -1.42
